Assay results pooled from the literature.
± gives the spread as reported.

Substance | assay | system | setting | scale | endpoint | result
CN[C@@](C)(C[18F])C(=O)O | – | SCID mouse DU-145 xenograft, blood | 15 min, post injection | – | tissue uptake | 2.2 ± 0.4 %ID/g
CC(C)[C@H](O)C(=O)N[C@H]1Cc2ccc3c(c2)[C@]2(C4=C(c5nc(CO)co5)N=C(O4)[C@H](C(C)(C)C)NC1=O)c1cc(F)ccc1N[C@@H]2O3 | – | NSG mouse, MDA-MB-231-BrM2 mammary fat pad tumour, tumour | intravenous, 10 mg/kg, single dose at MTD, together with: paclitaxel 40 mg/kg | – | terminal t1/2 | 29.3 h
CC(C(=O)NCC(=O)NCC(CNC(=O)CNC(=O)C(C)N1CCN(CC(=O)[O-])CCN(CC(=O)[O-])CCN(CC(=O)[O-])CC1)(CNC(=O)CNC(=O)C(C)N1CCN(CC(=O)[O-])CCN(CC(=O)[O-])CCN(CC(=O)[O-])CC1)CNC(=O)CNC(=O)C(C)N1CCN(CC(=O)[O-])CCN(CC(=O)[O-])CCN(CC(=O)[O-])CC1)N1CCN(CC(=O)[O-])CCN(CC(=O)[O-])CCN(CC(=O)[O-])CC1.[Gd+3].[Gd+3].[Gd+3].[Gd+3] (stereo not drawn) | – | human plasma | pH 7.4, 37 °C, 1.5 T | – | r1 relaxivity per Gd | 11.8
Cc1cnc(C(=O)N[C@H]2CCCCC/C=C\[C@@H]3C[C@@]3(C(=O)NS(=O)(=O)C3CC3)NC(=O)[C@@H]3C[C@@H](Oc4nc5ccccc5c5ccccc45)CN3C2=O)cn1 | – | healthy human volunteers, plasma | oral, dose not given, together with: pravastatin plus 2D regimen | – | AUC(0-24) | 1300 ng·h/mL
[123I]c1cncc(OC[C@@H]2CCN2)c1 | SPECT | human, temporal lobe | intravenous bolus, 8.6 mCi | relative to: plasma | tissue/plasma ratio | 11.4
CC(=O)N[C@H](CCCCNC(=O)C(C)F)C(=O)N[C@@H](CS)C(=O)N[C@@H](CS)C(=O)N[C@@H](CCC(=O)O)C(=O)N[C@@H](Cc1c[nH]cn1)C(=O)N[C@H](Cc1ccccc1)C(=O)N[C@@H](CCCNC(=N)N)C(=O)N[C@@H](Cc1c[nH]c2ccccc12)C(=O)N[C@@H](CS)C(=O)N[C@@H](CCCNC(=N)N)C(=O)N1CCC[C@H]1C(=O)N[C@H](C(N)=O)C(C)C (stereo partly drawn) [fluorine-18 labelled] | – | male C57BL/6 mice, B16-F10 tumour | intravenous, 1 h | relative to: tumour over muscle | tumour to tissue uptake ratio | 5.78 ± 1.35
CC(C)[C@H](NC(=O)[C@@H]1CCCN1C(=O)[C@H](CCCNC(=N)N)NC(=O)[C@H](CO)NC(=O)[C@H](CCCCN)NC(=O)[C@H](C)NC(=O)[C@H](Cc1c[nH]cn1)NC(=O)CNC(=O)[C@H](CCCNC(=N)N)NC(=O)[C@H](CCCCN)NC(=O)[C@@H](NC(=O)[C@H](CO)NC(=O)[C@H](Cc1c[nH]cn1)NC(=O)[C@@H](NC(=O)CNC(=O)[C@H](CCC(=O)O)NC(=O)[C@H](Cc1c[nH]cn1)NC(=O)[C@H](CC(=O)O)NC(=O)[C@H](C)NC(=O)[C@H](CCC(=O)O)NC(=O)[C@H](CO)NC(=O)CNC(=O)[C@H](C)NC(=O)[C@H](CCC(=O)O)NC(=O)[C@@H](N)CC(=O)O)[C@@H](C)O)[C@@H](C)O)C(=O)O | LC-MS/MS | human serum | concentration not given, 4 h, room temperature, tube with gel separator | relative to: initial concentration | change in serum concentration | 18.9 ± 8%
O[C@H]1CCCN[C@@H]1CCCn1cnc2c(Cl)c(Cl)ccc21 | – | human, plasma | oral, 300 mg, single dose, healthy volunteers | – | MRT | 9.75 h
triclabendazole sulfone | – | human liver mitochondrial fraction | 1 µM, 30 min | – | metabolised fraction | 0%
CCCCCOc1ccc(-c2ccc(-c3ccc(C(=O)N[C@H]4C[C@@H](O)[C@@H](O)NC(=O)[C@@H]5[C@@H](O)[C@@H](C)CN5C(=O)[C@H]([C@@H](C)O)NC(=O)[C@H]([C@H](O)[C@@H](O)c5ccc(O)cc5)NC(=O)[C@@H]5C[C@@H](O)CN5C(=O)[C@H]([C@@H](C)O)NC4=O)cc3)cc2)cc1 | – | adult patients | iv, dose not given, 3, during treatment | – | patients without hepatic or GI adverse events | 62%
CC(=O)c1c(O)c(C)c(O)c(Cc2c(O)c3c(c(C(=O)/C=C/c4ccccc4)c2O)OC(C)(C)C=C3)c1O | – | Balb/C mice, male, plasma | oral and intravenous | – | half-life | > 2 h
CCCCCCCCCCCCCCCCCC[N+](C)(C)CCCCCCCCCCCCCCCCCC | substrate depletion | human liver microsomes | 0.5 µM, 0 to 3 h, 37 °C, together with: NADPH | – | intrinsic clearance | 0.118 mL/h/mg protein

Some of these lines once more:
Substance | assay | system | setting | scale | endpoint | result
O[C@H]1CCCN[C@@H]1CCCn1cnc2c(Cl)c(Cl)ccc21 | – | human, plasma | oral, 300 mg, single dose, healthy volunteers | – | MRT | 9.75 h
Cc1cnc(C(=O)N[C@H]2CCCCC/C=C\[C@@H]3C[C@@]3(C(=O)NS(=O)(=O)C3CC3)NC(=O)[C@@H]3C[C@@H](Oc4nc5ccccc5c5ccccc45)CN3C2=O)cn1 | – | healthy human volunteers, plasma | oral, dose not given, together with: pravastatin plus 2D regimen | – | AUC(0-24) | 1300 ng·h/mL
